# Published values from different studies.
# Each line is one published result; not all experiments were run side by side. Several values in a cell are separate wells, animals, samples, runs or records. Numbers after ± are the reported error.
SMILES,tested on,test,test system,setting,how to read,measurement,result
COc1cc(-c2ccccc2)ncc1C(=O)Nc1ccc2c(=O)[nH]c(-c3ccc(C(C)(C)O)cc3)nc2c1,Apc Q1405X mutant organoids,"organoid viability, AlamarBlue",mouse small intestinal organoids,"6 days, Tnks genotype Tnks+/-",,Hill slope,-0.788
COc1ccc2ncnc(Cc3cccc(-c4ccccc4)c3)c2c1,A549,"mitochondrial oxygen consumption, Seahorse XF96",,10 µM,,inhibition,63%
CC(C)CNC(=S)N/N=C/c1ccc(N2CCC(O)CC2)cc1,BEAS-2B and A549,MTT,,,baseline: IC50 BEAS-2B over IC50 A549,selectivity ratio,7.2
Cn1c(Nc2nc3ccc(C(F)(F)F)cc3s2)nc2cc(C(=O)NCCOCCO)ccc21,SH-SY5Y,"RNA-seq, item: CREB5 mRNA",,"5 µM, 5 h",baseline: untreated cells,fold change,1.84
COC(=O)[C@]12CCC(C)(C)C[C@H]1[C@H]1C(=O)C=C3[C@@]4(C)C=C(C#N)C(=O)C(C)(C)[C@@H]4CC[C@@]3(C)[C@]1(C)CC2,HepG2,"high content imaging, item: nuclear size",,"24 h, distribution mode 1",,point of departure,0.741 µM
Cc1cnc2ccc3c(c2n1)N1CCC(O)N=C1N3C (centres unmarked),BALB/c 3T3,,,0.1 µM,baseline: solvent control,relative colony forming efficiency,110 ± 7%
Cc1cc(Nc2ncc(Cl)c(Nc3ccccc3S(=O)(=O)C(C)C)n2)c(OC(C)C)cc1C1CCNCC1,CLB-GE,"phosphoproteomics LC-MS/MS, item: WDR62 phosphorylation",,"200 nM, 60 min",baseline: untreated,log2 fold change,-3.12
C=CC(=O)N1CCCN(C(=O)c2cc(Sc3cnc(NC(=O)C4CC4)s3)c(C)cc2OC)C[C@H]1C,H9,Western blot,,"concentration not given, 30 s, added: anti-CD3",,PLCγ1 phosphorylation,inhibited
NC(=O)c1ccc[n+]([C@@H]2O[C@H](COP(=O)([O-])O)[C@@H](O)[C@H]2O)c1,,"binding, equilibrium dialysis LC-MS",,"5 µM, thermostabilized A2AR-BRIL construct","baseline: no-protein control, direction not given",z-scored log2 fold change,0.0966
CCn1cc(-c2cc(Cn3ccoc3=N)cc3c2CCN([C@@H](C)c2cc(OC)ccn2)C3=O)c(C(F)(F)F)n1,OVTOKO,"cell growth, inhibitor",,120 h,,EC50,0.227 µM
Nc1ncnc2[nH]cnc12,,"binding, equilibrium dialysis LC-MS",,"5 µM, thermostabilized A2AR-BRIL construct","baseline: no-protein control, direction not given",z-scored log2 fold change,1.18
O=c1ncccn1[C@@H]1O[C@H](CO)[C@@H](O)[C@H]1O,MEC1,trypan blue exclusion,,"200 µM, maximal, added: external beam irradiation 2 Gy",baseline: control,viability decrease,6%
Cc1ccc(F)c(NC(=O)Nc2ccc(-c3cccc4[nH]nc(N)c34)cc2)c1,iCell Cardiomyocytes (hiPSC-derived),xCELLigence Cardio impedance,,"concentration not given, 2 h",baseline: control,beat rate,94.1%
Cn1cc(-c2ccc(-c3cncc(Cl)c3N3CCC4(CCNC4=O)CC3)cc2)cn1,COLO 205,"gene expression, microarray, item: TCP11L2 mRNA",,"concentration not given, 2 h",baseline: untreated cells,log2 fold change,2.67
CCCCCCNC(=O)n1cc(F)c(=O)[nH]c1=O,SW-403,"LC-MS, item: Cer(d18:1/16:0)",,0.1 µM,,ceramide level,20.4 ± 1 pmol/mg protein
CN1CCN(S(=O)(=O)c2ccc(-c3cnc(N)c(C(=O)Nc4cccnc4)n3)cc2)CC1,ARPE-19 HiBiT fibulin-3,HiBiT luminescence,,1.66 µM,,fibulin-3 level,-37.9%
O=C(NOC[C@H](O)CO)c1ccc(F)c(F)c1Nc1ccc(I)cc1F,A549,,,"0.625 µM, 72 h",,viability,44.6%
COc1cc(N2CCC(N3CCN(C)CC3)CC2)ccc1Nc1ncc(Cl)c(Nc2ccccc2S(=O)(=O)C(C)C)n1,iCell Cardiomyocytes (hiPSC-derived),cellular impedance,,"concentration not given, 24 h",baseline: control,cell index,99.5%
OCc1nc2ccc(NCc3ccc(SC(F)(F)F)cc3)cc2[nH]1,sample A patient iPSC NPCs,"cell protection, MTS",,"up to 100 µM, 24 h",,Emax,15%
C[C@@H]1CN(C(=O)c2ccc(NC(=O)c3cc(O[C@H](C)c4c(Cl)ccc(F)c4Cl)c(N)nn3)cc2)C[C@H](C)N1,"NB1 (ALK amplification, exon 2-3 deletion)",cell viability,,,,Emax,81.7%
CC(C)(C)c1cnc(CSc2cnc(NC(=O)C3CCNCC3)s2)o1,iCell Cardiomyocytes (hiPSC-derived),cellular impedance,,"concentration not given, 24 h",baseline: control,cell index,53.2%
COc1ccc2c(N(C)c3ccc(/C(C)=N/OCCN)cc3)c3c(Cl)coc3nc2c1,LNCaP C-81,clonogenic,,"0.5 µM, 6 d",,colony formation reduction,99%
COc1cc(/C=C/C(=O)N2CCC=CC2=O)cc(OC)c1OC,MDA-MB-468,"qRT-PCR, item: MT2A",,"30 µM, 6 h",baseline: time zero,mRNA level,79.9 ± 10.2%
Cn1cc(Nc2nccc(-c3ccc4c(c3)CN(C3COC3)CC[C@H]4NC(=O)c3cn(C(C)(C)C)nn3)n2)cn1,mouse splenic B cells,item: CNTF signalling,,"30 mg/kg, IgD-activated in vivo","baseline: vehicle, direction not given",pathway activation z-score,2.33
COc1ccc(OC)c(-c2nc3ccc(-c4nc5ccc(N6CCN(C)CC6)cc5[nH]4)cc3[nH]2)c1,BT-549,SRB,,"10 µM, 48 h",,growth percent,96%
O=C(O)c1ccc(-c2c[nH]c3ncc(-c4ccccc4)cc23)cc1C1CCCC1,SK-OV-3,ATP,2D monolayer culture,"10 µM, 4 days",baseline: untreated,relative cell number,109%
CCN1CCN(Cc2ccc(NC(=O)Nc3ccc(Oc4cc(NC)ncn4)cc3)cc2C(F)(F)F)CC1,iCell Cardiomyocytes (hiPSC-derived),cellular impedance,,"concentration not given, 24 h",baseline: control,cell index,101%
Cc1nn(-c2nc3c(F)cc(F)cc3s2)c(O)c1C(c1ccc(C(F)(F)F)cc1)c1c(C)nn(-c2nc3c(F)cc(F)cc3s2)c1O,RAW-ISG,RT-qPCR,,"10 µM, unit not given, added: poly(I:C)",baseline: DMSO,IFNB1 mRNA level,0.878 and 1.17 and 0.977
COc1cnc2cccc(N3CCc4c(cc(Cn5ccnc5C)cc4-c4cn(C)nc4C(F)(F)F)C3=O)c2c1,DB,cell growth,,120 h,,EC50,5.32 µM
O=C(/C=C/C=C/C=C/C1CCCCC1)NC1=C[C@@](O)(/C=C/C=C/C=C/C(=O)NC2=C(O)CCC2=O)[C@@H]2O[C@@H]2C1=O,KYSE-180,"cell growth, CellTiter-Glo",,78 h,,GI50,20.6 µM
Cc1[nH]c(/C=C2\C(=O)Nc3ccc(S(=O)(=O)Cc4c(Cl)cccc4Cl)cc32)c(C)c1C(=O)N1CCC[C@@H]1CN1CCCC1,iCell Cardiomyocytes (hiPSC-derived),cellular impedance,,"concentration not given, 24 h",baseline: control,cell index,99.5%
Cc1cc(Nc2ncc(Cl)c(Nc3ccccc3S(=O)(=O)C(C)C)n2)c(OC(C)C)cc1C1CCNCC1,Ba/F3 EML4-ALK variant 1 E1210K,cell viability,,,,Emax,99.9%
Cl.Cl.NCCNS(=O)(=O)c1ccc(Cl)c2ccncc12,SK-OV-3,ATP,3D spheroid culture,"10 µM, 4 days, added: GA-017 10 µM",baseline: DMSO,relative cell number,254%
O=C(c1ccc(/C=C/c2n[nH]c3ccccc23)cc1)N1CCNCC1,iCell Cardiomyocytes (hiPSC-derived),xCELLigence Cardio impedance,,"concentration not given, 2 h",baseline: control,beat amplitude,108%
Cc1cccc(-c2[nH]c(CNc3ccccc3F)nc2-c2ccc3ncnn3c2)n1,bone marrow CD138+ myeloma cells,XTT,,"3 µM, mean of three patients",,viability,6%
CN1CC[C@H](c2c(O)cc(O)c3c(=O)cc(-c4ccccc4Cl)oc23)[C@H](O)C1,iCell Cardiomyocytes (hiPSC-derived),CellTiter-Glo,,"concentration not given, 24 h",baseline: control,ATP level,88.6%
CC#CC(=O)N1CCC[C@H]1c1nc(-c2ccc(C(=O)Nc3ccccn3)cc2)c2c(N)nccn12,Ramos,"calcium flux, FLIPR",,2 h preincubation,,maximum inhibition,86.5%
Cc1ccc(NC(=O)c2ccc(CN3CCN(C)CC3)cc2)cc1Nc1nccc(-c2cccnc2)n1,iCell Cardiomyocytes (hiPSC-derived),cellular impedance,,"concentration not given, 24 h",baseline: control,cell index,98.5%
CCn1cc(-c2cc(Cn3ccnc3)cc3c2CCN([C@H](c2cc(OC)ccn2)C2CC2)C3=O)c(C(F)(F)F)n1,CFPAC-1,"cell growth, inhibitor",,120 h,,EC50,14 µM
COc1cc2c(cc1OC)[C@@H](Cc1ccc(O)c(Oc3cc4c(cc3OC)CCN(C)[C@@H]4Cc3ccc(O)cc3)c1)N(C)CC2,3T3-L1,"adipocyte lipid accumulation, Nile Red staining",,5 µM,,inhibition,18.7 ± 0.9%
C=CC(=O)Nc1cccc(Oc2nc(Nc3ccc(N4CCN(C)CC4)cc3)nc3ccoc23)c1,TMD8 RAC2 knockout,"calcium flux, FLIPR",,"concentration not given, 2 h preincubation",,inhibition,70.8%
CCOCc1sc(NCc2ncccn2)nc1-c1ccccn1,THLE-2,,,,baseline: CC50 THLE-2 over Huh-7,selectivity ratio,< 2
C=CC(=O)N1CCC([C@@H]2CCNc3c(C(N)=O)c(-c4ccc(Oc5ccccc5)cc4)nn32)CC1,Ramos,"calcium flux, FLIPR",,4 h preincubation,,maximum inhibition,80.7%
Clc1ccc(C2(c3ccc(-c4cn[nH]c4)cc3)CCNCC2)cc1,SK-OV-3,ATP,2D monolayer culture,"1 µM, 4 days",baseline: untreated,relative cell number,55.8%

# A few entries again:
SMILES,tested on,test,test system,setting,how to read,measurement,result
COc1ccc2ncnc(Cc3cccc(-c4ccccc4)c3)c2c1,A549,"mitochondrial oxygen consumption, Seahorse XF96",,10 µM,,inhibition,63%
Cn1cc(-c2ccc(-c3cncc(Cl)c3N3CCC4(CCNC4=O)CC3)cc2)cn1,COLO 205,"gene expression, microarray, item: TCP11L2 mRNA",,"concentration not given, 2 h",baseline: untreated cells,log2 fold change,2.67
Cn1cc(Nc2nccc(-c3ccc4c(c3)CN(C3COC3)CC[C@H]4NC(=O)c3cn(C(C)(C)C)nn3)n2)cn1,mouse splenic B cells,item: CNTF signalling,,"30 mg/kg, IgD-activated in vivo","baseline: vehicle, direction not given",pathway activation z-score,2.33
CCOCc1sc(NCc2ncccn2)nc1-c1ccccn1,THLE-2,,,,baseline: CC50 THLE-2 over Huh-7,selectivity ratio,< 2
COc1ccc2c(N(C)c3ccc(/C(C)=N/OCCN)cc3)c3c(Cl)coc3nc2c1,LNCaP C-81,clonogenic,,"0.5 µM, 6 d",,colony formation reduction,99%
CN1CCN(S(=O)(=O)c2ccc(-c3cnc(N)c(C(=O)Nc4cccnc4)n3)cc2)CC1,ARPE-19 HiBiT fibulin-3,HiBiT luminescence,,1.66 µM,,fibulin-3 level,-37.9%
O=C(/C=C/C=C/C=C/C1CCCCC1)NC1=C[C@@](O)(/C=C/C=C/C=C/C(=O)NC2=C(O)CCC2=O)[C@@H]2O[C@@H]2C1=O,KYSE-180,"cell growth, CellTiter-Glo",,78 h,,GI50,20.6 µM
